Results from different studies.
Parts stem from different laboratories: compare values within a part only.
UniProt Q86UX6, sequence (whole entry, looked up): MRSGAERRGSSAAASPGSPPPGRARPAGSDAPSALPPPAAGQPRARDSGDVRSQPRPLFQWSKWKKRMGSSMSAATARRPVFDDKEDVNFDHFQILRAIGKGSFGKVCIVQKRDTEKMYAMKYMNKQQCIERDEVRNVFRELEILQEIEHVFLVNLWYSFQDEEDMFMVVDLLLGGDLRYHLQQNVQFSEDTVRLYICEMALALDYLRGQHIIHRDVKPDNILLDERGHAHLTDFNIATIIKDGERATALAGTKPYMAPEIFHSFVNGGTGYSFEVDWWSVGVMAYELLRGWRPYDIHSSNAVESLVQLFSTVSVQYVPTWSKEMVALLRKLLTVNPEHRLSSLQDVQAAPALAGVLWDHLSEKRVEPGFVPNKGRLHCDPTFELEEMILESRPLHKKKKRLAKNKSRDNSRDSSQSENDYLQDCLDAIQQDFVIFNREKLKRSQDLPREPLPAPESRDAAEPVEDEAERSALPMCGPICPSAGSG
UniProt Q9HBY8, sequence (whole entry, unmodified, looked up): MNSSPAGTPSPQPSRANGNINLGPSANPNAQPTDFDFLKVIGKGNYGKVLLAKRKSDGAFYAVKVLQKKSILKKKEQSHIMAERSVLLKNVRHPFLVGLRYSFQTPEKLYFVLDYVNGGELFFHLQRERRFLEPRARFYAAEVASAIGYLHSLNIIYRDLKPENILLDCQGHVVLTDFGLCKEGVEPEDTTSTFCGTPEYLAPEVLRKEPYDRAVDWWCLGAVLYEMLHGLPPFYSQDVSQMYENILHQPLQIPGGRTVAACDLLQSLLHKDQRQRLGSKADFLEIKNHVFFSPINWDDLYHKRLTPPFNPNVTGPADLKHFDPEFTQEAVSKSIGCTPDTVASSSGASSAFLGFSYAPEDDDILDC

Series 1
Target: Krueppel-like factor 3, full length (KLF3, Homo sapiens, UniProt P57682, residues 1-345)
UniProt P57682, sequence (whole entry, looked up): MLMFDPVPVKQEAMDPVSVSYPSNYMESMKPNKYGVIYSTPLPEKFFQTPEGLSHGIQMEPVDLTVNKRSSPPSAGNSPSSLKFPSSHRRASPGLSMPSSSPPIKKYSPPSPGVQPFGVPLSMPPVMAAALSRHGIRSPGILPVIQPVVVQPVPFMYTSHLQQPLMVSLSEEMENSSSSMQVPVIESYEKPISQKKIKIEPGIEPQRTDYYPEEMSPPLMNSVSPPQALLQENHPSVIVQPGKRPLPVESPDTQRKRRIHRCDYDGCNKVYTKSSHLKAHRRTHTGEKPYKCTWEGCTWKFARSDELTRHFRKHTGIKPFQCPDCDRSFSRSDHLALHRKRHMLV
Technique: protein-binding microarray
Form: hairpin DNA
Sample: in vitro
Tested at: not given
Setting: whole hairpin DNA, median over replicate spots
Baseline: not given
Reading: higher = stronger binding
Sequence	median fluorescence [a.u.]
GAGGCCCACCGCGCCCAGCCTCCTGGCTGGGCGCGGTGGGCCTCACACTC (5mC at 7)	8870
GAGGCCGGCCACGCCCAGCCTCCTGGCTGGGCGTGGCCGGCCTCACACTC (5mC at 37)	9330
GAGGCCCGCCGCGCCCAGCCTCCTGGCTGGGCGCGGCGGGCCTCACACTC	8470
GAGGCCGACCGCGCCCAGCCTCCTGGCTGGGCGCGGTCGGCCTCACACTC (5mC at 12 32 34)	8730
GAGGCCGACGACGCCCAGCCTCCTGGCTGGGCGTCGTCGGCCTCACACTC	8510
GAGGCCGACCGCGGCCAGCCTCCTGGCTGGCCGCGGTCGGCCTCACACTC (5mC at 31)	8190
GAGGCCGACCATGCCCAGCCTCCTGGCTGGGCATGGTCGGCCTCACACTC	8610
GAGGCCGCGCGCGCCCAGCCTCCTGGCTGGGCGCGCGCGGCCTCACACTC (5mC at 8 36)	9930

Series 2
Target: Max dimerization protein 1, bHLH-zipper, MAX partner unstated (MXD1, Homo sapiens, UniProt Q05195, residues 56-136)
Technique: protein-binding microarray
Form: double-stranded DNA, one strand shown
Sample: in vitro
Tested at: not given
Setting: k-mer, scored over probes, only values ≥0.25
Reading: higher = stronger binding
Construct (chain): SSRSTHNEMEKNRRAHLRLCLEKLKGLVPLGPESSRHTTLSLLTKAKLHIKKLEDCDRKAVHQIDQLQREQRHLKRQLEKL
Sequence	E-score
CACGCTAG	0.311
CAGCATGG	0.426
ACCACATG	0.466
GTGACCAC	0.297
ATGCTTAC	0.286
TCACGCGA	0.323
AAACCACG	0.374
CGCCACGC	0.398

Single results of other studies
SMILES	target or system	assay	test system	conditions	how to read	endpoint	value
O=C1C(Cl)=C(N2C(=O)CCC2=O)C(=O)c2ccccc21	Serine/threonine-protein kinase Sgk2 (SGK2, Homo sapiens, UniProt Q9HBY8)	enzyme activity, inhibitor		0.5 µM	baseline: control	remaining activity	99.5%
CCC[C@@H]1NC(=O)CSC[C@@H](C(=O)OCC)N(C)C(=O)[C@H](CC(C)C)NC(=O)[C@@H](C)N(C)C(=O)[C@H](CC(C)C)NC(=O)[C@H](C)N(C)C(=O)[C@H]2CCCN2C(=O)[C@H](CC(C)C)NC(=O)CN(C)C1=O			hydrocarbon/water			logD	0.958
O=C(O)[C@H]1[C@H](Cn2nnc3ccccc3c2=O)CC[C@@H]1C(=O)c1ccc(OCCC2CCOCC2)cc1	Serine/threonine-protein kinase 32C (STK32C, Homo sapiens, UniProt Q86UX6)	cell-free assay, competition with immobilised ligand		1 µM		remaining binding	89%
